Results collected from several papers.
Protocols differ between the studies behind these lines. Values joined by “and” are separate records of one study, mostly repeats; a detail may differ. ± marks the error that the study gave.

SMILES | test | system | conditions | scale | endpoint | value
N=C(N)NCCC[C@@H]1NC(=O)[C@H](Cc2c[nH]c3ccccc23)NC(=O)[C@@H](CC2CCCCC2)NC(=O)[C@@H]2CCCN2C(=O)[C@@H](NC(=O)CCc2ccccc2)CCCNC1=O |  | C57BL/6J mice, plasma | oral, 1 mg/kg |  | elimination half-life | 0.331 h
C[C@H]1CN(C(=O)c2cn(-c3ccnc(N)n3)c3cc(C#CC4(O)CCCCC4)ccc23)CCN1 |  | CD-1 mouse, plasma | intravenous, 1 mg/kg |  | AUC(0-inf) | 266 ng·h/mL
Cc1cc(O)cc(O)c1C(=O)c1c2c3c(c(O)cc(C)c3oc1=O)C(=O)c1c(O)cc(O)cc1-2 |  | Caco-2 | 50 µM, 3 h, pH 7.4 |  | Papp A→B | 2.91 ×10⁻⁶ cm/s
COc1cc([O-])c(C=NCCCN(C)CCN(C)CCCN=Cc2c([O-])cc(OC)cc2OC)c(OC)c1.[67Ga+3] |  | rat | intravenous, 2 h | baseline: heart over liver | tissue uptake ratio | 2.7 ± 0.3
Cn1c(=O)oc2ccc(-c3ccc(CC(C#N)NC(=O)C4CNCCCO4)c(F)c3)cc21 (centres unmarked) |  | human | oral, 40 mg once daily, TEAE, multiple ascending dose |  | bacterial test positive incidence | 22.2%
CC12CC(c3ccc(S(C)(=O)=O)cc3)C3=C4CCC(=O)C=C4CCC3C1CCC2(O)C(F)(F)C(F)(F)F (centres unmarked) |  | human | oral, 5 mg, mean of six subjects | baseline: dose | excreted amount in feces | 1.1%
CCC(=O)N[C@@H](C)C(=O)OCC(=O)N[C@@H](C)C(=O)O |  | water | pH 8, 37 °C |  | depolymerization half-life | 23.9 h
CCN(CC)c1ccc2c(-c3ccccc3C(=O)OCCOCCOCC[18F])c3ccc(=[N+](CC)CC)cc-3oc2c1 |  | rat, gut | dose not given, 60 min post injection |  | tissue uptake | 0.44 ± 0.09 %ID/g
NCCC(=O)N1Cc2ccccc2-c2c(nnn2-c2nc(N)c3ncn(C4OC(CO)C(O)C4O)c3n2)-c2ccccc21 (mixture of isomers) | frequency-domain fluorometry | methanol |  |  | fluorescence lifetime τ2 | 2 ns
CCCC[C@H](NC(=O)CNC(=O)CNC(=O)CN1CCN(CC(=O)O)CCN(CC(=O)O)CCN(CC(=O)O)CC1)C(=O)N[C@H]1CC(=O)NCCCC[C@@H](C(N)=O)NC(=O)[C@H](Cc2c[nH]c3ccccc23)NC(=O)[C@H](CCCNC(=N)N)NC(=O)[C@@H](Cc2ccccc2)NC(=O)[C@H](Cc2c[nH]cn2)NC1=O [copper-64 labelled] |  | female C57 mouse, B16/F1 melanoma, heart | intravenous, 0.037 MBq, 24 h |  | tissue uptake | 2.23 ± 0.1 %ID/g
COC(=O)C(c1ccccc1Cl)N1CCC(SCC(=O)c2cccc(OC)c2)C(=CC(=O)O)C1 (mixture of isomers) | HPLC-MS/MS | feline EDTA plasma | 100 ng/mL, 48 h, -80 °C, storage stability |  | deviation from nominal | 5%
O=C(O)CCC(NC(=O)NC(CCCCNC(=O)C(Cc1ccc2ccccc2c1)NC(=O)C1CCC(CNC(=S)Nc2ccc(CC(CN(CC(=O)O)C3CCCCC3N(CC(=O)O)CC(=O)O)N(CC(=O)O)CC(=O)O)cc2)CC1)C(=O)O)C(=O)O (centres unmarked) | 68Ga PET/CT | human | intravenous, 3 nmol | baseline: HBED-CC conjugate | liver and spleen uptake | ~2 fold
COc1ccc(NC(=O)[C@H](CCCCN)NC(=O)c2cc(NC(=O)[C@H](CCCCN)NC(=O)c3cc(NC(=O)[C@H](CCCCN)NC(=O)c4cc(NC(=O)[C@@H](N)CCCCN)ccc4OC)ccc3OC)ccc2OC)cc1C(N)=O | UV-vis λmax shift | TBS | pH 7.4, monomer-hexamer fit, added: NaCl 0.15 M |  | association midpoint concentration | 0.19 mM
O=C(O)/C=C/c1cccc(S(=O)(=O)Nc2ccccc2)c1 |  | human, moderate liver dysfunction, plasma | intravenous, 400 mg/m^2 belinostat, cycle 1 day -7, geometric mean | baseline: metabolite over belinostat | AUC(0-inf) metabolic ratio | 0.666
CNc1cc(OC)c(Nc2nccc(-c3cn(C4CC4)c4ccccc34)n2)cc1NC(=O)CCSCC(NC(C)=O)C(=O)O (centres unmarked) | radio-HPLC, co-eluting peaks pooled | human, feces | 0 to 240 h, sample holds 81.99% dose | baseline: dose | excreted amount | 6.76%
COc1ccc(-c2csc(N/N=C(\C)c3cc(O)cc(O)c3)n2)cc1 |  | stock and working solutions | concentration not given, 3 months, refrigerated, long-term storage |  | deviation from initial concentration | < 10%
N=C(N)NCCC[C@H](NC(=O)CON=C[C@H](F)[C@@H](O)[C@H](O)[C@H](O)CO)C(=O)NCC(=O)N[C@@H](CC(=O)O)C(=O)O [fluorine-18 labelled] |  | nude mice, U-87 MG xenograft | intravenous, 2 h | baseline: tumour over kidney | tissue ratio | 0.74 ± 0.43
Cc1ccc(OCC(=O)O)cc1 |  | Sprague-Dawley rat Crl:CD(SD), male, plasma | oral, 100 mg/kg/day of parent drug, day 90, 90-day repeated dosing |  | t1/2 | 3.71 h
Cc1ccc(-c2ccc(-c3cc4sccc4o3)cn2)nc1 | TCSPC | CHCl3 |  |  | radiative decay rate constant | 0.48 ns⁻¹
NC(=O)[C@@H](Cc1ccccc1)N[11C](=O)OCc1ccccc1 |  | male Wistar rats, plasma | intravenous, 45 min |  | intact tracer | 37% and 36.6%
CN[C@@H]1[C@H](O)[C@H](NC)[C@H]2O[C@]3(O)[C@H](O[C@@H]2[C@H]1O)O[C@H](C)C[C@@]3(O)CNCCc1ccc(C)cc1 |  | male BALB/c mouse, plasma | intravenous, 10 mg/kg |  | C0 | 38 to 74 µg/mL
CC(C)[C@H](NC(=O)[C@@H]1CCCN1C(=O)[C@H](CCCNC(=N)N)NC(=O)[C@H](CS)NC(=O)[C@H](Cc1c[nH]c2ccccc12)NC(=O)[C@H](CCCNC(=N)N)NC(=O)[C@@H](Cc1ccccc1)NC(=O)[C@H](Cc1c[nH]cn1)NC(=O)[C@H](CCC(=O)O)NC(=O)[C@H](CS)NC(=O)[C@H](CS)NC(=O)CNC(=O)[C@@H]1CC(=O)N[C@@H](CCCNC(=N)N)C(=O)NCC(=O)N[C@@H](CC(=O)O)C(=O)N[C@H](Cc2ccc(O)cc2)C(=O)N1)C(N)=O [technetium-99m labelled] |  | C57 mouse, female, B16/F1 melanoma, heart | intravenous, 0.037 MBq, 4 h |  | tissue uptake | 0.51 ± 0.2 %ID/g
CC(=O)N[C@H](CCCCN)C(=O)N[C@H](CC(C)C)C(=O)N[C@H](CCCCN)C(=O)N[C@H](CO)C(=O)N[C@H](CC(C)C)C(=O)N[C@H](CC(C)C)C(=O)N[C@H](CCCCN)C(=O)N[C@@H](C(=O)N[C@H](CC(C)C)C(=O)N[C@H](CO)C(=O)N[C@H](CCCCN)C(=O)N[C@H](C)C(=O)N[C@H](CCCCN)C(=O)N[C@H](CCCCN)C(=O)N[C@H](CCCCN)C(=O)N[C@H](CCCCN)C(=O)N[C@H](CC(C)C)C(=O)N[C@H](CCCCN)C(=O)N[C@@H](C(=O)N[C@H](CC(C)C)C(=O)N[C@H](CC(C)C)C(=O)N[C@H](CCCCN)C(=O)N[C@H](C)C(=O)N[C@H](CC(C)C)C(=O)N[C@H](CO)C(=O)N[C@H](CCCCN)C(N)=O)[C@H](C)O)[C@H](C)O | circular dichroism | 50% trifluoroethanol buffer | 5 °C | baseline: reference peptide in TFE | helical content | 89%
[11CH3]c1ccc2nc(C3CCC3)n(-c3ccc4[nH]ncc4c3)c2n1 | radio-HPLC | Sprague-Dawley rat, brain | 30 min |  | intact parent fraction | 92%
O=C(CCc1ccc(CNC(C(=O)OC2CCCC2)C2CCCCC2)cn1)NO (centres unmarked) |  | human, plasma | oral, 50 mg, single dose, median |  | Tmax | 0.5 h
COc1ccnc(C[S+]([O-])c2nc3cc(-n4cccc4)ccc3[nH]2)c1C (centres unmarked) |  | male Sprague Dawley rats, plasma | oral, 10 mg/kg ilaprazole racemate |  | Vz/F | 14.5 ± 9 L/kg
CC(C)c1cnc(-c2cc(Cl)ccc2F)cc1Nc1ccncc1C(=O)NC(CO)CO | monotherapy, measured: diarrhoea | human patients | oral, dose not given, grade 4, phase I A |  | patients with treatment-related adverse event | 0%
COc1cccc(C=NCCCN(C)CCN(C)CCCN=Cc2cccc(OC)c2[O-])c1[O-].[67Ga+3] |  | rat | intravenous, 1 min | baseline: heart over blood | tissue uptake ratio | 7.6 ± 1
COc1cc(C(=O)COC(=O)CCCN)cc(OC)c1O | pump-probe transient absorption | 10% acetonitrile in water |  |  | singlet lifetime | 3.7 ps

A few entries again:
SMILES | test | system | conditions | scale | endpoint | value
CNc1cc(OC)c(Nc2nccc(-c3cn(C4CC4)c4ccccc34)n2)cc1NC(=O)CCSCC(NC(C)=O)C(=O)O (centres unmarked) | radio-HPLC, co-eluting peaks pooled | human, feces | 0 to 240 h, sample holds 81.99% dose | baseline: dose | excreted amount | 6.76%
COc1ccc(-c2csc(N/N=C(\C)c3cc(O)cc(O)c3)n2)cc1 |  | stock and working solutions | concentration not given, 3 months, refrigerated, long-term storage |  | deviation from initial concentration | < 10%
N=C(N)NCCC[C@H](NC(=O)CON=C[C@H](F)[C@@H](O)[C@H](O)[C@H](O)CO)C(=O)NCC(=O)N[C@@H](CC(=O)O)C(=O)O [fluorine-18 labelled] |  | nude mice, U-87 MG xenograft | intravenous, 2 h | baseline: tumour over kidney | tissue ratio | 0.74 ± 0.43
Cc1ccc(OCC(=O)O)cc1 |  | Sprague-Dawley rat Crl:CD(SD), male, plasma | oral, 100 mg/kg/day of parent drug, day 90, 90-day repeated dosing |  | t1/2 | 3.71 h
